Experimental data of several laboratories.
Every numbered part comes from another study and shows a few of its results, in no order. Changes are numbered by the printed parent chain.

Set 1 — target: CCNF, cyclin fold, Cln2 fusion (human); method: yeast growth competition, sequencing; sample: yeast; notes: weak parent motif; relative to: not given; direction: higher = stronger binding
Parent: PKN2 docking peptide (human); VSAVQKLDFSDTM
Variant	normalised enrichment score
K6L	-0.512
D11R	0.657
A3D	-1.81
V4P	-0.378
D8L	2.35
S2I	0.311
S2Q	0.804
V1H	1.77

Set 2 — method: protein binding microarray; form: double-stranded DNA, one strand shown; sample: in vitro; concentration: not given; relative to: not given; direction: higher = stronger binding
Target: Histone acetyltransferase KAT6A, winged helix 2, GST fusion (KAT6A, Homo sapiens, UniProt Q92794, residues 85-181)
Notes: 8-mer, flanks averaged, mean of 2 arrays, mostly near background
Residues (chain): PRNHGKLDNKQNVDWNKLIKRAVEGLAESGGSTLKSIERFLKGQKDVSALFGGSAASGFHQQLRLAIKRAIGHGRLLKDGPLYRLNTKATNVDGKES
Oligonucleotide	E-score
CTCATCTA	-0.12
ATATACCG	0.0789
GAACACGA	0.0532
ATCAGGGC	0.147
GGCAAGGA	0.0479
GGCTAAGA	-0.118
CAAGGGAC	-0.05
CACATCCG	0.0343
GGAATTCA	0.0276
CGGTATCA	-0.025
ATAAATTC	0.0535

Set 3 — method: universal PBM; form: double-stranded DNA, one strand shown; sample: in vitro; concentration: not given; direction: higher = stronger binding
Target: Sal-like protein 4, full length isoform B (SALL4, Homo sapiens, UniProt Q9UJQ4-2, residues 1-616)
Notes: 8-mer, flanks averaged, mean of replicates
Target sequence (chain): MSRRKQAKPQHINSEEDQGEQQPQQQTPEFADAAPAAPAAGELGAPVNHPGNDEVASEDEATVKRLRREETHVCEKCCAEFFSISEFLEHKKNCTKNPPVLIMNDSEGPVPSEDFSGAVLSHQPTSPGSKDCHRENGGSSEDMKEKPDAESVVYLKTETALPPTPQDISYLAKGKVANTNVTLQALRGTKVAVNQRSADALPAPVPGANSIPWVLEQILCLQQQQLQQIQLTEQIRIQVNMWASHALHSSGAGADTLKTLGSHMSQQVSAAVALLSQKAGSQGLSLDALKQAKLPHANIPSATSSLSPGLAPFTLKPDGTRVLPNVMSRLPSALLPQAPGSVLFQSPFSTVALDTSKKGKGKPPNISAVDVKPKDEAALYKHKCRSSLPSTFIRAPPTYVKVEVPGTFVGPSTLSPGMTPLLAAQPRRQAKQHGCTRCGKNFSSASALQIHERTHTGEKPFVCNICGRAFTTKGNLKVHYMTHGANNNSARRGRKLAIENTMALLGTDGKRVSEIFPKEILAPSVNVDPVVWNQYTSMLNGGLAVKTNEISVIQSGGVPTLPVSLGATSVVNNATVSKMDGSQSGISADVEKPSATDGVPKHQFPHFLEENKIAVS
Oligonucleotide	E-score
ACTTCTAG	-0.0716
CGCTTACG	-0.207
AGGAGACC	-0.232
CGGTACTA	-0.18
AGATCGCA	-0.133
CCGCAGAG	-0.236
CTAGTGAC	0.103
CATGGGGC	-0.257
GTGTCGTA	0.0702

Further values, each from its own experiment
Molecule	target	assay	test system	setting	how to read	quantity	value
PhoQ, residues 284 288 289 292 302 303 TVTVVA	PhoP, residues 12 14 15 18 19 LHSVQ (Escherichia coli, UniProt P23836)	Sort-seq, refers to: YFP reporter	E. coli	PhoQ-PhoP variant library, with: 10 µM Mg2+	relative to: high Mg2+ state, higher = stronger signaling	fold induction	12.8

Repeated from above (set 2):
Oligonucleotide	E-score
ATCAGGGC	0.147
GGCAAGGA	0.0479
GGCTAAGA	-0.118
CAAGGGAC	-0.05
